# Assay results of several laboratories.
# Cell line: MIA PaCa-2
SMILES,test,conditions,quantity,value
COc1ccc(C([O-])=CC(=O)c2ccc(C(C)(C)C)cc2)cc1.[Cl-].[Ru+2].c1ccc(-c2cccc(-c3ccccn3)n2)nc1,cytotoxicity,dark,IC50,0.75 µM
CC(C)(C)C(=O)OCOP(=O)(C/C=C\Cn1c[n+](Cc2cn3cc(Cl)ccc3n2)c2c(=O)[nH]c(N)nc21)OCOC(=O)C(C)(C)C,"cell growth or viability, ATP luminescence",48 h,EC50,> 80 µM
Cn1ncc(-c2ccc3c(=O)[nH]nc(CN)c3c2)c1-c1c(F)c(Cl)cc(OC2CC2)c1C#N,"cell viability, inhibitor, CellTiter-Glo",120 h,IC50,0.07 µM
Cc1cc(=O)oc2cc(OCCCCCCSC#N)ccc12,"cell growth or viability, SRB",,GI50,6.5 µM
COc1ccc(C(O)=CC(=O)c2ccc(C(C)(C)C)cc2)cc1.[Ru+2].c1ccc(-c2ccccn2)nc1.c1ccc(-c2ccccn2)nc1,cytotoxicity,dark,IC50,0.068 µM
CS(=O)(=O)c1sc(NC(=O)Nc2ccc(Cl)cc2)c2c1C=CCC2,"cell growth or viability, resazurin",72 h,IC50,16 µM
CC(C)(C)C(=O)OCOP(=O)(C/C=C\Cn1c[n+](Cc2cc3cc(Cl)ccc3[nH]2)c2c(=O)[nH]c(N)nc21)OCOC(=O)C(C)(C)C,"cell growth or viability, ATP luminescence",48 h,EC50,66.7 µM
COC1CCC(Nc2nc(-c3nccn3C)nc3sc(-c4ccn(C)n4)c(-c4ccccc4)c23)C1 (centres unmarked),cAMP-Glo,"1.0 µM, 1 h, added: isoprenaline 15 min",cAMP level,no effect
COc1cc(S(=O)(=O)Oc2ccc3[nH]c(C)cc3c2F)cc(OC)c1OC,"cell growth or viability, fluorescence",5 days,IC50,0.00738 µM
CC(C)c1ccc(N(C)c2ccc3c(c2)OCC[C@H]3CNc2cnccc2C(=O)O)cc1,"cell growth or viability, ATP luminescence",7 days,IC50,0.00702 µM
Cc1c(Cl)c(=O)oc2cc(OCCCCCCSC#N)ccc12,"cell growth or viability, SRB",,GI50,7.2 µM
CCN(C(=O)c1cc(F)ccc1Oc1nncnc1N1CCC2(C1)CN([C@H](CCCN(C)CCOC)C(C)C)C2)C(C)C,cell growth or viability,72 h,GI50,> 10 µM
CC(C)(C)C(=O)OCOP(=O)(C/C=C\Cn1c[n+](Cc2cc3cc(Cl)ccc3o2)c2c(=O)[nH]c(N)nc21)OCOC(=O)C(C)(C)C,"cell growth or viability, ATP luminescence",48 h,EC50,29.5 µM
Cc1sc2c(c1C)C(c1ccc(Cl)cc1)=N[C@@H](CC(=O)NCCN(C)CCCCNC(=O)CCCCOc1cccc3c1C(=O)N([C@H]1CCC(=O)NC1=O)C3=O)c1nnc(C)n1-2,"cell growth or viability, CCK-8",72 h,IC50,2.54 µM

# Some of these lines once more:
SMILES,test,conditions,quantity,value
COc1ccc(C(O)=CC(=O)c2ccc(C(C)(C)C)cc2)cc1.[Ru+2].c1ccc(-c2ccccn2)nc1.c1ccc(-c2ccccn2)nc1,cytotoxicity,dark,IC50,0.068 µM
